Published values collected from several papers.
Numbered parts are unrelated; each lists some results of a single study.

Study 1
Target: Prothrombin, mature alpha-thrombin (F2, Homo sapiens, UniProt P00734)
Technique: aptamer microarray, sandwich
Molecule type: DNA with 2'F-ANA
Medium: in vitro
Concentration: 200 nM
Setting: whole 15-mer aptamer, many near background
Added: Cy3 exosite-II aptamer, 400 nM
Reading: higher = stronger binding
Oligonucleotide: GGTTGGTGTGGTTGG
Under “mean fluorescence intensity”, `2'F-ANA at 2 3 4 5 9 10 12 13 14 15` is recorded as 57.1 a.u.
`2'F-ANA at 2 5 7 11 12 15` — result for “mean fluorescence intensity”: 125 a.u.
`2'F-ANA at 1 4 5 6 7 8 11 13 14` — result for “mean fluorescence intensity”: 50.4 a.u.
`2'F-ANA at 1 3 5 6 8 10 11 13 15` — result for “mean fluorescence intensity”: 49.3 a.u.
For `2'F-ANA at 1 2 4 5 6 7 8 9 10 12 15`, “mean fluorescence intensity” read 50 a.u.
`2'F-ANA at 1 2 4 5 9 12 14`: “mean fluorescence intensity” 43.8 a.u.
Under “mean fluorescence intensity”, `2'F-ANA at 1 2 4 6 8 9 10 12 14` is recorded as 48.4 a.u.
`2'F-ANA at 2 4 5 7 9 10 12`: “mean fluorescence intensity” 49.9 a.u.
`2'F-ANA at 1 3 7 8 10 13 14 15` — result for “mean fluorescence intensity”: 62.6 a.u.

Study 2
Target: Histone acetyltransferase KAT6A, winged helix 1, GST fusion (KAT6A, Homo sapiens, UniProt Q92794, residues 1-85)
Technique: protein binding microarray
Molecule type: double-stranded DNA, one strand shown
Medium: in vitro
Concentration: not given
Setting: 8-mer, flanks averaged, mean of 2 arrays, mostly near background
Baseline: not given
Reading: higher = stronger binding
Target sequence (chain): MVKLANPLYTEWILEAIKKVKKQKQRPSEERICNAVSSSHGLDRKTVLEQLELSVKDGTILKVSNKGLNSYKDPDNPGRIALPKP
The E-score of `ACCGCAAG` is reported as 0.0799.
`GTCCGTCA` gave an E-score of 0.0119.
`CTTGCGGA` has an E-score of 0.0567.
The E-score of `AGAGGGAT` is reported as -0.175.
For `CTCACGAG`, the E-score was -0.201.
For `ACGTTTCT`, the E-score was -0.275.
The E-score of `ACTGCGCC` is reported as 0.289.

Study 3
Target: Sal-like protein 4, full length isoform A (SALL4, Homo sapiens, UniProt Q9UJQ4, residues 1-1053)
UniProt Q9UJQ4, sequence (whole entry, looked up): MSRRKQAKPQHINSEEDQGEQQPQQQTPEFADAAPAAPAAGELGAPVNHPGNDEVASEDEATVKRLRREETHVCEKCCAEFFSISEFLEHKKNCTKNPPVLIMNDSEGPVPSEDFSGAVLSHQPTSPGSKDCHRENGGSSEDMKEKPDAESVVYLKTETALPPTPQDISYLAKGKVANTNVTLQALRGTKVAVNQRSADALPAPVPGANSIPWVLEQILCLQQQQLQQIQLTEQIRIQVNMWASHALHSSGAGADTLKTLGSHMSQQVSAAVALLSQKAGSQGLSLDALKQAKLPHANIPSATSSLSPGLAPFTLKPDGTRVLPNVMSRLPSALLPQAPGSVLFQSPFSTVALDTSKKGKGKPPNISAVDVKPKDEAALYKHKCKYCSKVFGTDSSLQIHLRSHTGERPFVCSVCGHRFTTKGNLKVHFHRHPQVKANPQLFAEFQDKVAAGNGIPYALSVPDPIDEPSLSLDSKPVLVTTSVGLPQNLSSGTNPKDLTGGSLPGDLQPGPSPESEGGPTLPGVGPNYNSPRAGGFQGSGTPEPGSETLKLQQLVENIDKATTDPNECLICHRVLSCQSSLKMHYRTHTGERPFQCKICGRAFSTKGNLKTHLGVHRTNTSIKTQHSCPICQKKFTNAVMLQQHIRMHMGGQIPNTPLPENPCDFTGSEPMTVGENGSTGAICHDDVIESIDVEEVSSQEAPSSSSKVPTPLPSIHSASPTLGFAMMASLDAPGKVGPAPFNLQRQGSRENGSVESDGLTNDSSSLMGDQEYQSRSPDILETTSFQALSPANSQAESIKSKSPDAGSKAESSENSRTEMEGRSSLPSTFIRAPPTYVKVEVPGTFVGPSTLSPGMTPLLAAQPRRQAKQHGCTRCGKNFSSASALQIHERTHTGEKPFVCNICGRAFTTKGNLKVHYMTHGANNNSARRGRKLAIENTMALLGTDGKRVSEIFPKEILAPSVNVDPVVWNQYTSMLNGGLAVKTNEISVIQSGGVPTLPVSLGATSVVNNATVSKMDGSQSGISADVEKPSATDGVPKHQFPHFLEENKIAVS
Technique: universal PBM
Molecule type: double-stranded DNA, one strand shown
Medium: in vitro
Concentration: 600 nM
Setting: 8-mer, flanks averaged, mean of replicates
Reading: higher = stronger binding
With `GGGTTAAC` the E-score was -0.0557.
The E-score of `AATGTTGG` is reported as 0.148.
With `ATTCCCAA` the E-score was 0.312.
With `TAGTTAGA` the E-score was 0.209.
The E-score of `CCAACCGA` is reported as -0.0486.
With `ACAACCCC` the E-score was -0.229.

Other studies, line by line
The fold induction of `PhoQ, residues 284 288 289 292 302 303 SQSLSM` is reported as 4.12 (PhoP, residues 12 14 15 18 19 AQCLL (Escherichia coli, UniProt P23836); Sort-seq, refers to: YFP reporter; E. coli; PhoQ-PhoP variant library, added: 10 µM Mg2+; baseline: high Mg2+ state, higher = stronger signaling).

Repeated from above (study 1):
`2'F-ANA at 1 3 5 6 8 10 11 13 15` — result for “mean fluorescence intensity”: 49.3 a.u.
`2'F-ANA at 2 4 5 7 9 10 12`: “mean fluorescence intensity” 49.9 a.u.
Under “mean fluorescence intensity”, `2'F-ANA at 1 2 4 6 8 9 10 12 14` is recorded as 48.4 a.u.
